# Results from different studies.
# Compare with care: the assays were run in different laboratories.
# Method: steady-state kinetics
# B1: SLCO1B1 (Homo sapiens, UniProt Q9Y6L6); chain MDQNQHLNKTAEAQPSENKKTRYCNGLKMFLAALSLSFIAKTLGAIIMKSSIIHIERRFEISSSLVGFIDGSFEIGNLLVIVFVSYFGSKLHRPKLIGIGCFIMGIGGVLTALPHFFMGYYRYSKETNINSSENSTSTLSTCLINQILSLNRASPEIVGKGCLKESGSYMWIYVFMGNMLRGIGETPIVPLGLSYIDDFAKEGHSSLYLGILNAIAMIGPIIGFTLGSLFSKMYVDIGYVDLSTIRITPTDSRWVGAWWLNFLVSGLFSIISSIPFFFLPQTPNKPQKERKASLSLHVLETNDEKDQTANLTNQGKNITKNVTGFFQSFKSILTNPLYVMFVLLTLLQVSSYIGAFTYVFKYVEQQYGQPSSKANILLGVITIPIFASGMFLGGYIIKKFKLNTVGIAKFSCFTAVMSLSFYLLYFFILCENKSVAGLTMTYDGNNPVTSHRDVPLSYCNSDCNCDESQWEPVCGNNGITYISPCLAGCKSSSGNKKPIVFYNCSCLEVTGLQNRNYSAHLGECPRDDACTRKFYFFVAIQVLNLFFSALGGTSHVMLIVKIVQPELKSLALGFHSMVIRALGGILAPIYFGALIDTTCIKWSTNNCGTRGSCRTYNSTSFSRVYLGLSSMLRVSSLVLYIILIYAMKKKYQEKDINASENGSVMDEANLESLNKNKHFVPSAGADSETHC
# B2: sacB S173G (Priestia megaterium, UniProt D5DC07); chain KGNDSKDFNNSYGISHITRDNMVKIPQQQNSDQFKVPAFDESTIKNIASAKGKNASGNTIDLDVWDSWPLQNADGTVATYHGYQIVFALAGDPKDSNDTSVYLFYKKAGDKSIDSWKNAGRVFKDSDKFVPNDPHLKNQTQEWGGSGTLTKDGKVRLFYTDYSGKQYGKQTLTTAQVNMSQPNDNTLKVDGVEDYKSIFDGDGKIYQTVQQFIDEGGYDTGDNHTLRDPHYIEDNGHKYLVFEANTGTEDGYQGEDSLYNRAYYGGNNPFFQSEKKKLLEGSNKEKASLANGALGIIELNDDYTLKKVMKPLITSNTVTDEIERANIFKKDGKWYLFTDSRGSKMTIDGIGQDDVYMLGYVSNTLTGKYKPLNDTGLVLHMDLDPNDKTFTYSHFAVPQTKGDNVVITSYMTNRGFYEDNHSTFAPSFLVNIDGSKTSVVKDRVLEQGQLTVDED
# B3: SULT1B1 K266E (Homo sapiens, UniProt O43704); chain MLSPKDILRKDLKLVHGYPMTCAFASNWEKIEQFHSRPDDIVIATYPKSGTTWVSEIIDMILNDGDIEKCKRGFITEKVPMLEMTLPGLRTSGIEQLEKNPSPRIVKTHLPTDLLPKSFWENNCKMIYLARNAKDVSVSYYHFDLMNNLQPFPGTWEEYLEKFLTGKVAYGSWFTHVKNWWKKKEEHPILFLYYEDMKENPKEEIKKIIRFLEKNLNDEILDRIIHHTSFEVMKDNPLVNYTHLPTTVMDHSKSPFMRKGTAGDWENYFTVAQNEKFDAIYETEMSKTALQFRTEI
# B4: BaiA2 (Clostridium scindens, UniProt P19337); chain MNLVQDKVTIITGGTRGIGFAAAKIFIDNGAKVSIFGETQEEVDTALAQLKELYPEEEVLGFAPDLTSRDAVMAAVGQVAQKYGRLDVMINNAGITSNNVFSRVSEEEFKHIMDINVTGVFNGAWCAYQCMKDAKKGVIINTASVTGIFGSLSGVGYPASKASVIGLTHGLGREIIRKNIRVVGVAPGVVNTDMTNGNPPEIMEGYLKALPMKRMLEPEEIANVYLFLASDLASGITATTVSVDGAYRP
# B5: enzyme (Brachypodium distachyon, UniProt I1IPY7); chain MEQGKAALGWAARDASGHLSPYNFSRRVQKDDDVTIKVLFCGICHTDLHIIKNEWGNALYPIVPGHEVVGVVTDVGPGVKNFKAGETVGVGYFLDSCRTCDSCSKGHENYCPTLVLTSNGVDYDGATTQGGFSDVVVVNQDYVVRVPDTLPPDGAAPLLCAGVTVYSPMMQYGLNAPGKHLGVVGLGGLGHMAVKFGKAFGMKVTVISSSLRKREEALDRLGADDFLVSSDAEQMKAAAGAMDGIIDTVSAGHPIVPLLELLRPMGQMVVCGAPSEPLQLPAYAVITGGKRIAGNGVGSVRDCQAMLDFAGEHGITADVEVVKMDYVNTAVERLERNDVRYRFVIDVAGSLQQGGAA
# B6: protein (Cecembia lonarensis, UniProt K1KV82); chain QENKEKDRTPSSKHLTDNILQPKRSSDFMAFKYEYSTVDLYREFSESIMDKARSEVEILESVNRQGRYKPNVESLKLHEVPEWFEDAKLGIFLDWGPWSVPGYAPLKGAEASTGGSYPDWYEFLMDNLYKEYHDEVWGADFRRDDFLPLLTGENFNSEEYMLLAVNSGAKYFVPFTKHHAGWTMWESEFTKRNAVEMGPGRDIYKELIEAGKKYDMKMGFYFSVSEWEYPVIVDQNLSQWDPVKNLAIFQDALGQIPRATPLASYFPALHDRMISGKIPVKDYFADYMIPSFKEAVDKYDPDLVWYDGGWGSPVSISRTMETSAYFYNQAEGKKDVVINNRAGSSLSEDDLIKVRDLMDSGKRDEAMKIYLSGQQLGDYGTPEFTIGDVDIQSKWEVCRSISPAFGYNWQDDEASSLSGEELIKLFVDIVANNGNLLLVISPDGSGKLPDIQKDRLLELGDWMKVNAESIHNTRPWKVQKENDKFFTKSKDGKSLFVHCTNWPGENLIINTPIEEGIKGIKLLGSDINLQFTKASNGNLEIPIPKDFQNNPSLISKYVWTFKIDLN
# B7: carbamoyl phosphate synthetase large subunit A23K (Escherichia coli, UniProt P00968); chain PKRTDIKSILILGAGPIVIGQKCEFDYSGAQACKALREEGYRVILVNSNPATIMTDPEMADATYIEPIHWEVVRKIIEKERPDAVLPTMGGQTALNCALELERQGVLEEFGVTMIGATADAIDKAEDRRRFDVAMKKIGLETARSGIAHTMEEALAVAADVGFPCIIRPSFTMGGSGGGIAYNREEFEEICARGLDLSPTKELLIDESLIGWKEYEMEVVRDKNDNCIIVCSIENFDAMGIHTGDSITVAPAQTLTDKEYQIMRNASMAVLREIGVETGGSNVQFAVNPKNGRLIVIEMNPRVSRSSALASKATGFPIAKVAAKLAVGYTLDELMNDITGGRTPASFEPSIDYVVTKIPRFNFEKFAGANDRLTTQMKSVGEVMAIGRTQQESLQKALRGLEVGATGFDPKVSLDDPEALTKIRRELKDAGADRIWYIADAFRAGLSVDGVFNLTNIDRWFLVQIEELVRLEEKVAEVGITGLNADFLRQLKRKGFADARLAKLAGVREAEIRKLRDQYDLHPVYKRVDTCAAEFATDTAYMYSTYEEECEANPSTDREKIMVLGGGPNRIGQGIEFDYCCVHASLALREDGYETIMVNCNPETVSTDYDTSDRLYFEPVTLEDVLEIVRIEKPKGVIVQYGGQTPLKLARALEAAGVPVIGTSPDAIDRAEDRERFQHAVERLKLKQPANATVTAIEMAVEKAKEIGYPLVVRPSYVLGGRAMEIVYDEADLRRYFQTAVSVSNDAPVLLDHFLDDAVEVDVDAICDGEMVLIGGIMEHIEQAGVHSGDSACSLPAYTLSQEIQDVMRQQVQKLAFELQVRGLMNVQFAVKNNEVYLIEVNPRAARTVPFVSKATGVPLAKVAARVMAGKSLAEQGVTKEVIPPYYSVKEVVLPFNKFPGVDPLLGPEMRSTGEVMGVGRTFAEAFAKAQLGSNSTMKKHGRALLSVREGDKERVVDLAAKLLKQGFELDATHGTAIVLGEAGINPRLVNKVHEGRPHIQDRIKNGEYTYIINTTSGRRAIEDSRVIRRSALQYKVHYDTTLNGGFATAMALNADATEKVISVQEMHAQIK
# B8: Cop6 (Coprinopsis cinerea, UniProt A8NCK5); chain MPAALPYNVSRDNKWDIKKIIQDFFKRCDVPYQVIPYDTELWNACLKRAKEKGYPVEPDSPMSLYRSFKVGVVITRTSYGHIQDYEILIWVATFTAFVTYADDAFQEDIQHLHSFARTFLQNEKHEHPVLEAFAQFLRESSIRFSHFVANTVVSSALRFMMSIALEFEGQNVSVSTEAREYPGYIRILSGLSDIYALFAFPMDLPRSTYIQAFPEQIDYINGTNDLLSFYKEELDCETVNFISAAATSQQVSKLEVLRNAAEKAAYSYDVVVNVLKPYPEALAAWKSFARGFCYFHTSSPRYRLGEMFHDFEHDLVCKCASCTEI
# B9: alanine racemase H166A (Geobacillus stearothermophilus, UniProt P10724); chain MNDFHRDTWAEVDLDAIYDNVENLRRLLPDDTHIMAVVKANAYGHGDVQVARTALEAGASRLAVAFLDEALALREKGIEAPILVLGASRPADAALAAQQRIALTVFRSDWLEEASALYSGPFPIHFHLKMDTGMGRLGVKDEEETKRIVALIERHPHFVLEGLYTAFATADEVNTDYFSYQYTRFLHMLEWLPSRPPLVHCANSAASLRFPDRTFNMVRFGIAMYGLAPSPGIKPLLPYPLKEAFSLHSRLVHVKKLQPGEKVSYGATYTAQTEEWIGTIPIGYADGWLRRLQHFHVLVDGQKAPIVGRICMDQCMIRLPGPLPVGTKVTLIGRQGDEVISIDDVARHLETINYEVPCTISYRVPRIFFRHKRIMEVRNAIGRGESSA
# B10: enzyme (Chlamydomonas reinhardtii, UniProt A0A2K3D6R4); chain MSETAGKPIECKAAIAWEAKKPLEVRTVTVAPPGPGEVRVQIKATALCQTDAYTLGGLDPEGRFPCILGHEAAGVVESVGEGVTSVKPGDHVIPCYQAYCGECKFCKHPESNLCVSVRAFTGKGVMKSDGKPRFTVDGKPIYHFMGTSTFSEYTVVHEQSVAKIDVNAPLDKVCLLGCGVSTGWGAVFNTAKVTAGSTVAVFGLGAVGLAVIEAAKRAGASRIIAVDIDPTKFPTAKEFGATDCINPKDHEKPIQQVIVEMTEWGCDYTFECIGNTAVMRAALECAHRGWGTSVIVGVAAAGQEISTRPFQLVTGRRWMGTAFGGYKSRVQVPDLVTDYMSGATLLDKYITHNMKFDQINEAFELLHAGECLRCVLTF
# Sequence of UniProt P42982 (whole entry, looked up): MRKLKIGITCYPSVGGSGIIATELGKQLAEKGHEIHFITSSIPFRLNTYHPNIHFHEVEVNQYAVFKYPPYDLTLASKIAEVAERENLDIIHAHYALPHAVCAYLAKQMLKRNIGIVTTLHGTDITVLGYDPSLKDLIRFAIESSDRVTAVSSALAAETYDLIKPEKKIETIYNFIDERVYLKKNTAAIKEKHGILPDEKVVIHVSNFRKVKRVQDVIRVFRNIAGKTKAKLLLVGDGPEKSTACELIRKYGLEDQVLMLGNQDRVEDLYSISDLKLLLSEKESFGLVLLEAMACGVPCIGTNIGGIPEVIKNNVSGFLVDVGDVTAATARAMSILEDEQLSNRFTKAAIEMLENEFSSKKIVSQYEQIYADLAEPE
# Sequence of UniProt E1V931 (whole entry, looked up): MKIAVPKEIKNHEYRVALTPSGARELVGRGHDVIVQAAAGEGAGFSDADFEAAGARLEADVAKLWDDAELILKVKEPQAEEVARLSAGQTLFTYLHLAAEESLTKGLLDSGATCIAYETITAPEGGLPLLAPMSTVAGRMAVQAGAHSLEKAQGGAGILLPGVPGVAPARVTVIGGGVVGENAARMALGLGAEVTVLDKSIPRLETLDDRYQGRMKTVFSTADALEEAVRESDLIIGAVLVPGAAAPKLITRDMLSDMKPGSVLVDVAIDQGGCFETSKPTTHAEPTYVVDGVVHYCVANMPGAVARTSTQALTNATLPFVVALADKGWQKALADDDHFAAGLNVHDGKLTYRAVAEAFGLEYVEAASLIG
# Sequence of UniProt P22106 (whole entry, looked up): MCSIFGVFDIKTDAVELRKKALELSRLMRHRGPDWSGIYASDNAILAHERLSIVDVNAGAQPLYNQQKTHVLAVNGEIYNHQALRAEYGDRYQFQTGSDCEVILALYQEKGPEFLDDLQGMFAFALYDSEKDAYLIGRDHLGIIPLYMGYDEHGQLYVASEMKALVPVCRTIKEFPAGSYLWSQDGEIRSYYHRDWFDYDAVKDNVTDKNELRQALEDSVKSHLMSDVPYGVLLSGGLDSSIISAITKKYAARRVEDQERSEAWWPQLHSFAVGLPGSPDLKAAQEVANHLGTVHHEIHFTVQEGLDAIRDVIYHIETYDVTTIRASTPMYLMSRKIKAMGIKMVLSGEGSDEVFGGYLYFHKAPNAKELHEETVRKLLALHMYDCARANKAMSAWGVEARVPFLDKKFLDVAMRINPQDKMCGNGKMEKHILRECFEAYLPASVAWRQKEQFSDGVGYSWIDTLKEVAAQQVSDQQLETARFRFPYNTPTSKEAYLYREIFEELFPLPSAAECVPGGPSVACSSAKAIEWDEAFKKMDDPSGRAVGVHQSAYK
Substance,substrate,conditions,Km
B1 (SLCO1B1),CC(=O)O[C@@]12CO[C@@H]1C[C@H](O)[C@@]1(C)C(=O)[C@H](O)C3=C(C)[C@@H](OC(=O)[C@H](O)[C@@H](NC(=O)OC(C)(C)C)c4ccccc4)C[C@@](O)([C@@H](OC(=O)c4ccccc4)[C@H]21)C3(C)C,"37 °C, not purified",0.43 µM
B2 (sacB S173G),OC[C@H]1O[C@@](CO)(O[C@H]2O[C@H](CO)[C@@H](O)[C@H](O)[C@H]2O)[C@@H](O)[C@@H]1O,pH 6.6,27700 µM
B3 (SULT1B1 K266E),Nc1ncnc2c1ncn2[C@@H]1O[C@H](COP(=O)(O)OS(=O)(=O)O)[C@@H](OP(=O)(O)O)[C@H]1O,"pH 7.4, 37 °C, monomer, together with: 1-naphthol",3.88 µM
B4 (BaiA2),NC(=O)c1ccc[n+]([C@@H]2O[C@H](COP(=O)(O)OP(=O)(O)OC[C@H]3O[C@@H](n4cnc5c(N)ncnc54)[C@H](O)[C@@H]3O)[C@@H](O)[C@H]2O)c1,"pH 8.7, 37 °C, cofactor from expression host, cofactor varied",6.7 µM
B5 (enzyme),NC(=O)c1ccc[n+]([C@@H]2O[C@H](COP(=O)(O)OP(=O)(O)OC[C@H]3O[C@@H](n4cnc5c(N)ncnc54)[C@H](OP(=O)(O)O)[C@@H]3O)[C@@H](O)[C@H]2O)c1,"pH 8.8, 23 °C, cofactor varied",66 µM
B6 (protein),C[C@@H]1O[C@@H](Oc2ccc([N+](=O)[O-])cc2)[C@@H](O)[C@H](O)[C@H]1O,"pH 5.5, 35 °C",417 µM
B7,Nc1ncnc2c1ncn2[C@@H]1O[C@H](COP(=O)(O)OP(=O)(O)OP(=O)(O)O)[C@@H](O)[C@H]1O,"pH 7.6, KCl 100 mM, together with: glutamine 10 mM, ornithine 10 mM",380 µM
"bshA (Bacillus subtilis, UniProt P42982)",O=C(O)C[C@H](O)C(=O)O,"pH 7.5, 37 °C, apparent, together with: UDP-GlcNAc 10 mM",410 µM
B8 (Cop6),CC(C)=CCC/C(C)=C/CC/C(C)=C/CO[P@@](=O)(O)OP(=O)(O)O,"pH 8, 30 °C, together with: MgCl2 10 mM",7.6 µM
B9 (alanine racemase H166A),C[C@@H](N)C(=O)O,"pH 9, room temperature, together with: NAD+ 10 mM",1600 µM
B10 (enzyme),NC(=O)C1=CN([C@@H]2O[C@H](COP(=O)(O)OP(=O)(O)OC[C@H]3O[C@@H](n4cnc5c(N)ncnc54)[C@H](O)[C@@H]3O)[C@@H](O)[C@H]2O)C=CC1,"pH 7.9, apparent, cofactor varied",14.3 µM
"enzyme (Halomonas elongata, UniProt E1V931)",NC(=O)c1ccc[n+]([C@@H]2O[C@H](COP(=O)(O)OP(=O)(O)OC[C@H]3O[C@@H](n4cnc5c(N)ncnc54)[C@H](O)[C@@H]3O)[C@@H](O)[C@H]2O)c1,"pH 10, 25 °C, cofactor varied",260 µM
"asnB (Escherichia coli, UniProt P22106)",NC(=O)CC[C@H](N)C(=O)O,"pH 8, 37 °C, 100 mM NaCl, glutaminase site, together with: MgCl2; no ATP",5000 µM

# For quick reference, copied from above:
Substance,substrate,conditions,Km
B1 (SLCO1B1),CC(=O)O[C@@]12CO[C@@H]1C[C@H](O)[C@@]1(C)C(=O)[C@H](O)C3=C(C)[C@@H](OC(=O)[C@H](O)[C@@H](NC(=O)OC(C)(C)C)c4ccccc4)C[C@@](O)([C@@H](OC(=O)c4ccccc4)[C@H]21)C3(C)C,"37 °C, not purified",0.43 µM
